Experimental data from different studies.
Each line is one published result; not all experiments were run side by side.
UGT1A4: UDP-glucuronosyltransferase 1A4 (UGT1A4, Homo sapiens, UniProt P22310)
Sequence of UniProt P22310 (whole entry, looked up): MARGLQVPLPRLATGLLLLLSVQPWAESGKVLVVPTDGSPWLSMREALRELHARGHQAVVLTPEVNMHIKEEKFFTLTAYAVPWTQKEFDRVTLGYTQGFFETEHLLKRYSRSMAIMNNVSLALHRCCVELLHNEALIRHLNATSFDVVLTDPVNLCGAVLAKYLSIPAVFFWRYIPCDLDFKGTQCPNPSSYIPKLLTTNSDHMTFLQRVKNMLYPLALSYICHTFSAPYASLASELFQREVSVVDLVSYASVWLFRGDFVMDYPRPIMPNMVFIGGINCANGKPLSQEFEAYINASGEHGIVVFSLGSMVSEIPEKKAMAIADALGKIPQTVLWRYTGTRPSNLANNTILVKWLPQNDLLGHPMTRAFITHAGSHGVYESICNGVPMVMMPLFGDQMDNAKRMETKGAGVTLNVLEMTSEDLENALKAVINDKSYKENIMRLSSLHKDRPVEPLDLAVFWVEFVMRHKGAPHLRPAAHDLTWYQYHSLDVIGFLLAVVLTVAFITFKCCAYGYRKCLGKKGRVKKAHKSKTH
Sequence of UniProt Q8TD08 (whole entry, looked up): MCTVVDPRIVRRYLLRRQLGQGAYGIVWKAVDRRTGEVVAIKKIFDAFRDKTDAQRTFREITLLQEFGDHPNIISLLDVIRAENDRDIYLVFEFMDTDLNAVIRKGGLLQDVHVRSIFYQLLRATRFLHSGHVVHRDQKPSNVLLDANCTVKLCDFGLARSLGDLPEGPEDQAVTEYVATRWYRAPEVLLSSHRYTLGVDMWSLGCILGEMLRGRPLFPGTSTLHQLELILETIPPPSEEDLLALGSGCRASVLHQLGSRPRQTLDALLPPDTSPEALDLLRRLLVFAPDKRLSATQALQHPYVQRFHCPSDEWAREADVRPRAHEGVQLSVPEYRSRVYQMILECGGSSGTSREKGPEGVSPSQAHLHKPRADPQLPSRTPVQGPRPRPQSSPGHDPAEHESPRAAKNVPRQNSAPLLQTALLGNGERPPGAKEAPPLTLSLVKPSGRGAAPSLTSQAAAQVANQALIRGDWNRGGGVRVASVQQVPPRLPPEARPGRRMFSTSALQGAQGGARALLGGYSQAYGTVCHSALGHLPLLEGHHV
Sequence of UniProt Q9P1W9 (whole entry, looked up): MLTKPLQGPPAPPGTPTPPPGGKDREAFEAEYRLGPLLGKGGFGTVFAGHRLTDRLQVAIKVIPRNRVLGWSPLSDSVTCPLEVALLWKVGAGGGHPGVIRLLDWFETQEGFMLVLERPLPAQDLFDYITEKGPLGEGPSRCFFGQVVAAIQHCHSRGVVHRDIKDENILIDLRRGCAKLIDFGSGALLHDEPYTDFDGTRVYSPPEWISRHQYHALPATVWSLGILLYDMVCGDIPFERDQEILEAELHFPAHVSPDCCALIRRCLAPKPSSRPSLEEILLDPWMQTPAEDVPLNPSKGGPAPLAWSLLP
Sequence of UniProt P54764 (whole entry, looked up): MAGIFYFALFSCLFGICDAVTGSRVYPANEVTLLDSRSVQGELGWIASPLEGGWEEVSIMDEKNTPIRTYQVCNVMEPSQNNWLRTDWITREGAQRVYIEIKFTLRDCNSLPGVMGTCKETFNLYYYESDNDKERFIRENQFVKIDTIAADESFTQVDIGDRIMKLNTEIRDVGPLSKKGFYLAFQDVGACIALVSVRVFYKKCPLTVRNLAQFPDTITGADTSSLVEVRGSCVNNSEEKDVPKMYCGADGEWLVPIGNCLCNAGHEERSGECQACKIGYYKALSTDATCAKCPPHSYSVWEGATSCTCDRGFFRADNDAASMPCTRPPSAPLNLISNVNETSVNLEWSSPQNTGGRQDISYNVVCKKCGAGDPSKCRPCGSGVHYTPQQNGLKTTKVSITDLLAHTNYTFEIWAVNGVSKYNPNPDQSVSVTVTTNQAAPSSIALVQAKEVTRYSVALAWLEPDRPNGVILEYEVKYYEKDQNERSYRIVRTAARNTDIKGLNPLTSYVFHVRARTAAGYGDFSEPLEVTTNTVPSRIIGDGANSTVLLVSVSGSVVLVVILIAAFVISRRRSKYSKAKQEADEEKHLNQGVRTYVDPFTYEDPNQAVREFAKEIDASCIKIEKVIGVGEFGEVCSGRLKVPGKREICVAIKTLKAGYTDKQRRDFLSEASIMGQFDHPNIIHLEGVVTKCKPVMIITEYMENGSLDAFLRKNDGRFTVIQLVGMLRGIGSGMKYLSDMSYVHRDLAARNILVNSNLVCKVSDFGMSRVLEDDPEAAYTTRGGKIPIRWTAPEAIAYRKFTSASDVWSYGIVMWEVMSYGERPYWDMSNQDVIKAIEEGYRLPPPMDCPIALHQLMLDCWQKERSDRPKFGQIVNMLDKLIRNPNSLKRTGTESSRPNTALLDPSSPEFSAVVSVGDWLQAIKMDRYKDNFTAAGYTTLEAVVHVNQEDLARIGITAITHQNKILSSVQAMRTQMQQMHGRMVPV
Sequence of UniProt P49137 (whole entry, looked up): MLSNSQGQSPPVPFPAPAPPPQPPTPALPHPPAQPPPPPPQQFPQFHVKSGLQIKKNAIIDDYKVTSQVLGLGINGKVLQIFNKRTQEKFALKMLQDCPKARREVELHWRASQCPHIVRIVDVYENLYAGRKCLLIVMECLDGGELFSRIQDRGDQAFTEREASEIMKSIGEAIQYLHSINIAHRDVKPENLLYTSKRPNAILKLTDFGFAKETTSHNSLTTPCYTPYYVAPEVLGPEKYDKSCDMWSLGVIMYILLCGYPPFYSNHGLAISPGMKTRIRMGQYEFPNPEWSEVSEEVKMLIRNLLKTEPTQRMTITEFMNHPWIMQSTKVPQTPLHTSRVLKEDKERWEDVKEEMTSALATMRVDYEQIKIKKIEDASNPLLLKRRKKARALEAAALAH
Sequence of UniProt Q9UIK4 (whole entry, looked up): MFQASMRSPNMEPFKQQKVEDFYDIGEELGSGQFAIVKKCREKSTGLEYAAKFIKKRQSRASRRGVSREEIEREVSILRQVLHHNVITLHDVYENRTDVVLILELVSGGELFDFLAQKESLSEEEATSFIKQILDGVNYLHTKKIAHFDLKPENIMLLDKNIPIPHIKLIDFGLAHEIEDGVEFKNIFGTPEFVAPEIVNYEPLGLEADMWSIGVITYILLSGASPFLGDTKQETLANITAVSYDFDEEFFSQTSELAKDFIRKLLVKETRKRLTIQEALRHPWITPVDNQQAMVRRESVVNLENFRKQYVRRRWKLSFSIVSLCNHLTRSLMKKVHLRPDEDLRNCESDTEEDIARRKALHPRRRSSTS
Sequence of UniProt O14920 (whole entry, looked up): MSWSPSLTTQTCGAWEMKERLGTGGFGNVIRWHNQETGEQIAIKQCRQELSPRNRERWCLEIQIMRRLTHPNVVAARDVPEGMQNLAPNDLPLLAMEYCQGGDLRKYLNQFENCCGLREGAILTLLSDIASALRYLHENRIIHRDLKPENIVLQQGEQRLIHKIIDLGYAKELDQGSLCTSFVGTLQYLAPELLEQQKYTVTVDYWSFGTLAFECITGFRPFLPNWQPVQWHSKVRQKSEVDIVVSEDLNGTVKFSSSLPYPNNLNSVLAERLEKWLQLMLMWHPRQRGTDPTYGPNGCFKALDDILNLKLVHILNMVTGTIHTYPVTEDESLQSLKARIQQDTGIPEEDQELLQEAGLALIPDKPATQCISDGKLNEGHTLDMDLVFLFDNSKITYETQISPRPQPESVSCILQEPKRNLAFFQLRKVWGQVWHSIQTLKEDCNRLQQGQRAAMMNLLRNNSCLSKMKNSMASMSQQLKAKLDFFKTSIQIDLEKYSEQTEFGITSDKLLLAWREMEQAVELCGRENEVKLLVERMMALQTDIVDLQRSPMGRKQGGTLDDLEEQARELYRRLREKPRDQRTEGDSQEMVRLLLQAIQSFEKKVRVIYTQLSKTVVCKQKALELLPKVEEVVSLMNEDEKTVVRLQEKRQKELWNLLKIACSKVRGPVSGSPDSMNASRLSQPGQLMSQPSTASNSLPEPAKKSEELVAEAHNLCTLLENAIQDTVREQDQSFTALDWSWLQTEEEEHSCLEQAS
Sequence of UniProt P45983 (whole entry, looked up): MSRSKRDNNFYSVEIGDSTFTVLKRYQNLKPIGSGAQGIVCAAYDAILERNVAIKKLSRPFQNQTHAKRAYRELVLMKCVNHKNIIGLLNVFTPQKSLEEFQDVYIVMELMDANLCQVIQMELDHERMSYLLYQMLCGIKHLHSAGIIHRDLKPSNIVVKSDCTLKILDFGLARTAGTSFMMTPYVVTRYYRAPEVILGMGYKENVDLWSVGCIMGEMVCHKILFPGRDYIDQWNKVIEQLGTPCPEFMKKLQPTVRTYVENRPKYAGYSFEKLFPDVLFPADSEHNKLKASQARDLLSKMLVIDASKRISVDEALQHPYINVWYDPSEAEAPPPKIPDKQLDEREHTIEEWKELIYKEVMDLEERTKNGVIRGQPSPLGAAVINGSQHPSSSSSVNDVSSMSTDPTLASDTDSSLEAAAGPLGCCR

| Compound | target or system | test | test system | conditions | how to read | measurement | value |
| --- | --- | --- | --- | --- | --- | --- | --- |
| C[C@@H]1CC[C@@]2(OC1)O[C@H]1C[C@H]3[C@@H]4CC[C@H]5C[C@@H](O)CC[C@]5(C)[C@H]4CC(=O)[C@]3(C)[C@H]1[C@@H]2C | UGT1A4 | glucuronidation, inhibitor | human liver microsomes | 1 µM, together with: probe substrate 50 µM | relative to: no inhibitor | remaining activity | ~67% |
| CNCC(=O)O | Sodium- and chloride-dependent glycine transporter 1 (SLC6A9, Homo sapiens, UniProt P48067, G373S) | glycine uptake, inhibitor | – | 1000 µM, together with: [3H]glycine | relative to: no inhibitor | remaining activity | 94% |
| COc1cc(-c2cncc3c2CN(C)Cc2cc(N4CCNCC4)ccc2-3)cc(OC)c1OC | Serine/threonine-protein kinase pim-2 (PIM2, Homo sapiens, UniProt Q9P1W9) | kinase activity | – | 1 µM, human enzyme, together with: ATP 10 µM | relative to: DMSO control | remaining activity | 110% |
| Cc1cc(Nc2cc(N3CCN(C)CC3)nc(Sc3ccc(NC(=O)C4CC4)cc3)n2)[nH]n1 | Inhibitor of nuclear factor kappa-B kinase subunit beta (IKBKB, Homo sapiens, UniProt O14920) | kinase activity, KinaseProfiler | – | 0.03 µM, species human | relative to: control | remaining activity | 105% |
| COc1cc(Nc2ncc3c(n2)-c2ccc(Cl)cc2C(c2c(F)cccc2OC)=NC3)ccc1C(=O)O | FGFR3 | kinase activity | – | 1 µM | – | remaining activity | 46% |
| NC(=O)c1ccc(I)c([N+](=O)[O-])c1 | OCI-Ly1 | – | – | 0.1 µM, 120 h | – | viability | 195% |
| CNc1ncc2c(/C=C/C(=O)N3CCC(OC)CC3)nn(Cc3cccc(C(F)(F)F)c3)c2n1 | Mitogen-activated protein kinase 15 (MAPK15, Homo sapiens, UniProt Q8TD08) | kinase activity, inhibitor | – | 1 µM | relative to: untreated control | remaining activity | 95% |
| O=C(O)c1ccc(Nc2ncc3c(n2)-c2ccc(Cl)cc2C(c2c(F)cccc2F)=NC3)cc1 | SAPK2a(h) | kinase activity | – | 1 µM | – | remaining activity | 105% |
| Cc1cc(NC(=O)c2cccc(NC(=O)/C=C/CN(C)C)c2)ccc1Nc1nccc(-c2cccnc2)n1 | Mitogen-activated protein kinase 8 (MAPK8, Homo sapiens, UniProt P45983) | enzyme activity, inhibitor | – | 0.006774 µM, 18 h, unit not given, together with: GSH 10 mM pre-incubation | relative to: vehicle | remaining activity | 1.03 |
| O=C(NC1CCC1)c1ccc2nc(-c3cccc(NS(=O)(=O)NCCN4CCCCC4)c3)cn2c1 | Serine/threonine-protein kinase Nek4 (NEK4, Homo sapiens, UniProt P51957) | enzyme activity | – | 10 µM | – | remaining activity | 100% |
| COc1cc(F)ccc1-c1ncnc(Nc2cccc(C[S@](C)(=N)=O)c2)n1 | Death-associated protein kinase 2 (DAPK2, Homo sapiens, UniProt Q9UIK4) | kinase activity | – | 10 µM, together with: 10 µM ATP | – | remaining activity | 99% |
| O=c1cc(-c2ccc(O)c(-c3c(O)cc(O)c4c(=O)cc(-c5ccc(O)cc5)oc34)c2)oc2cc(O)cc(O)c12 | UGT1A4 | glucuronidation, inhibitor | human liver microsomes | 100 µM, together with: probe substrate 50 µM | relative to: no inhibitor | remaining activity | ~10% |
| C=CC(=O)N1CCC[C@@H](n2nc(-c3ccc(Oc4ccccc4)cc3)c3c(N)ncnc32)C1 | Ephrin type-A receptor 4 (EPHA4, Homo sapiens, UniProt P54764) | – | – | 0.1 µM | – | remaining activity | 146% |
| O=C1NC(=O)/C(=C/c2ccc(-c3ccc(F)cc3O)o2)S1 | MAP kinase-activated protein kinase 2 (MAPKAPK2, Homo sapiens, UniProt P49137) | enzyme activity | – | 10 µM | – | remaining activity | 80% |
| Cc1cc(=O)oc2cc(NC(=O)CCCCCCC(=O)NO)ccc12 | OCI-Ly1 | – | – | 0.5 µM, 120 h | – | viability | 48.3% |
